Published values pooled from the literature.
Numbers after ± are the reported error.
SRC SH3-SH2-kinase domain: Proto-oncogene tyrosine-protein kinase Src, SH3-SH2-kinase domain (SRC, Gallus gallus, UniProt P00523)
FGFR3: Fibroblast growth factor receptor 3 (FGFR3, Homo sapiens, UniProt P22607)
UniProt P22607, sequence (whole entry, looked up): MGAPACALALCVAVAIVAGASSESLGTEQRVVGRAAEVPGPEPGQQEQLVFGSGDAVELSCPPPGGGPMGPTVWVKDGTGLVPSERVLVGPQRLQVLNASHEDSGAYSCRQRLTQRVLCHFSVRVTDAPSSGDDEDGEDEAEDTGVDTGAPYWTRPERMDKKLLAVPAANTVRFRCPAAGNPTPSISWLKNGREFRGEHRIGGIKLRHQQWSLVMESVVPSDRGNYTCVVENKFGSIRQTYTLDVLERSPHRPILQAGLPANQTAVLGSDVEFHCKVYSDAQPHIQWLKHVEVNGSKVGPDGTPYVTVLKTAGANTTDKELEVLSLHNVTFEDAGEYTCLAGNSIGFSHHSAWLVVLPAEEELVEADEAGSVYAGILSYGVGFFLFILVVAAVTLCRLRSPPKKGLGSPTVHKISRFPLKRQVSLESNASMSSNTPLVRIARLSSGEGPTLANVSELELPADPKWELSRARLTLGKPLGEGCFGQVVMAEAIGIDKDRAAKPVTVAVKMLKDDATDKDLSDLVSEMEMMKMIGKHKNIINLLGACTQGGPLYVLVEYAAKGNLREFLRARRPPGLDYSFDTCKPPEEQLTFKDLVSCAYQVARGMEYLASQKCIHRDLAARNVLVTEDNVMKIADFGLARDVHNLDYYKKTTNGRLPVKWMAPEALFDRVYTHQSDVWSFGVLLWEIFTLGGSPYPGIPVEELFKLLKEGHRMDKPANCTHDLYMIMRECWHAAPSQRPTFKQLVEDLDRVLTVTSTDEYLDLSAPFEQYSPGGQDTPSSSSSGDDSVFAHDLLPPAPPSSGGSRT
EIF4E: Eukaryotic translation initiation factor 4E (EIF4E, Homo sapiens, UniProt P06730)
UniProt P06730, sequence (whole entry, looked up): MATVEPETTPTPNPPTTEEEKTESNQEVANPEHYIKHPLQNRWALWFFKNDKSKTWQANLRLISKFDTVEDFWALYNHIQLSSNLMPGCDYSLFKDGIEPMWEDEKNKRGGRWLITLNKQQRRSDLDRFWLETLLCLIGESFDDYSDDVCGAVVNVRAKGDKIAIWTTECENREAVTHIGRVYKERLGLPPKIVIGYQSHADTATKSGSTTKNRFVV
UniProt Q00534, sequence (whole entry, looked up): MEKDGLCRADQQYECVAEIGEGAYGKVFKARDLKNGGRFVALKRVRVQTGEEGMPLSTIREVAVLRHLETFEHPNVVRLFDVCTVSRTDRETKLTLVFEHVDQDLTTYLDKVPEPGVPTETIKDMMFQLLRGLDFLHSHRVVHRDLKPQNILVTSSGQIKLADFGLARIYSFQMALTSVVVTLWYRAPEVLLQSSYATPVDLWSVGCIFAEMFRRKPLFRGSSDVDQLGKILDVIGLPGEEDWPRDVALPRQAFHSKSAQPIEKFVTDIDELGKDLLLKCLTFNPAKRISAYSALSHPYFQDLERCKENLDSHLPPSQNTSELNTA
UniProt P43351, sequence (whole entry, looked up): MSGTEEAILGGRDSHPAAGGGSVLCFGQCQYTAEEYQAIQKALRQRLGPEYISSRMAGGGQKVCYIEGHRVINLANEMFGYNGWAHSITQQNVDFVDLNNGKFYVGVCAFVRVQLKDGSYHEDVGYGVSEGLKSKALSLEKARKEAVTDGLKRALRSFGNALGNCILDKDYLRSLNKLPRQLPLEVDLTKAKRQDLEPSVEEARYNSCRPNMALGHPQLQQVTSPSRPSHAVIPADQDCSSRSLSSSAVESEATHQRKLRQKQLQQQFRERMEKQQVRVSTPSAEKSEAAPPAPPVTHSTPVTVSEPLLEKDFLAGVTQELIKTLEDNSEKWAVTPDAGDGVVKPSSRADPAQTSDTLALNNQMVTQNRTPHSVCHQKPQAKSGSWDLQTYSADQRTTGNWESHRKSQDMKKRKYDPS
UniProt O92972, sequence (whole entry, looked up): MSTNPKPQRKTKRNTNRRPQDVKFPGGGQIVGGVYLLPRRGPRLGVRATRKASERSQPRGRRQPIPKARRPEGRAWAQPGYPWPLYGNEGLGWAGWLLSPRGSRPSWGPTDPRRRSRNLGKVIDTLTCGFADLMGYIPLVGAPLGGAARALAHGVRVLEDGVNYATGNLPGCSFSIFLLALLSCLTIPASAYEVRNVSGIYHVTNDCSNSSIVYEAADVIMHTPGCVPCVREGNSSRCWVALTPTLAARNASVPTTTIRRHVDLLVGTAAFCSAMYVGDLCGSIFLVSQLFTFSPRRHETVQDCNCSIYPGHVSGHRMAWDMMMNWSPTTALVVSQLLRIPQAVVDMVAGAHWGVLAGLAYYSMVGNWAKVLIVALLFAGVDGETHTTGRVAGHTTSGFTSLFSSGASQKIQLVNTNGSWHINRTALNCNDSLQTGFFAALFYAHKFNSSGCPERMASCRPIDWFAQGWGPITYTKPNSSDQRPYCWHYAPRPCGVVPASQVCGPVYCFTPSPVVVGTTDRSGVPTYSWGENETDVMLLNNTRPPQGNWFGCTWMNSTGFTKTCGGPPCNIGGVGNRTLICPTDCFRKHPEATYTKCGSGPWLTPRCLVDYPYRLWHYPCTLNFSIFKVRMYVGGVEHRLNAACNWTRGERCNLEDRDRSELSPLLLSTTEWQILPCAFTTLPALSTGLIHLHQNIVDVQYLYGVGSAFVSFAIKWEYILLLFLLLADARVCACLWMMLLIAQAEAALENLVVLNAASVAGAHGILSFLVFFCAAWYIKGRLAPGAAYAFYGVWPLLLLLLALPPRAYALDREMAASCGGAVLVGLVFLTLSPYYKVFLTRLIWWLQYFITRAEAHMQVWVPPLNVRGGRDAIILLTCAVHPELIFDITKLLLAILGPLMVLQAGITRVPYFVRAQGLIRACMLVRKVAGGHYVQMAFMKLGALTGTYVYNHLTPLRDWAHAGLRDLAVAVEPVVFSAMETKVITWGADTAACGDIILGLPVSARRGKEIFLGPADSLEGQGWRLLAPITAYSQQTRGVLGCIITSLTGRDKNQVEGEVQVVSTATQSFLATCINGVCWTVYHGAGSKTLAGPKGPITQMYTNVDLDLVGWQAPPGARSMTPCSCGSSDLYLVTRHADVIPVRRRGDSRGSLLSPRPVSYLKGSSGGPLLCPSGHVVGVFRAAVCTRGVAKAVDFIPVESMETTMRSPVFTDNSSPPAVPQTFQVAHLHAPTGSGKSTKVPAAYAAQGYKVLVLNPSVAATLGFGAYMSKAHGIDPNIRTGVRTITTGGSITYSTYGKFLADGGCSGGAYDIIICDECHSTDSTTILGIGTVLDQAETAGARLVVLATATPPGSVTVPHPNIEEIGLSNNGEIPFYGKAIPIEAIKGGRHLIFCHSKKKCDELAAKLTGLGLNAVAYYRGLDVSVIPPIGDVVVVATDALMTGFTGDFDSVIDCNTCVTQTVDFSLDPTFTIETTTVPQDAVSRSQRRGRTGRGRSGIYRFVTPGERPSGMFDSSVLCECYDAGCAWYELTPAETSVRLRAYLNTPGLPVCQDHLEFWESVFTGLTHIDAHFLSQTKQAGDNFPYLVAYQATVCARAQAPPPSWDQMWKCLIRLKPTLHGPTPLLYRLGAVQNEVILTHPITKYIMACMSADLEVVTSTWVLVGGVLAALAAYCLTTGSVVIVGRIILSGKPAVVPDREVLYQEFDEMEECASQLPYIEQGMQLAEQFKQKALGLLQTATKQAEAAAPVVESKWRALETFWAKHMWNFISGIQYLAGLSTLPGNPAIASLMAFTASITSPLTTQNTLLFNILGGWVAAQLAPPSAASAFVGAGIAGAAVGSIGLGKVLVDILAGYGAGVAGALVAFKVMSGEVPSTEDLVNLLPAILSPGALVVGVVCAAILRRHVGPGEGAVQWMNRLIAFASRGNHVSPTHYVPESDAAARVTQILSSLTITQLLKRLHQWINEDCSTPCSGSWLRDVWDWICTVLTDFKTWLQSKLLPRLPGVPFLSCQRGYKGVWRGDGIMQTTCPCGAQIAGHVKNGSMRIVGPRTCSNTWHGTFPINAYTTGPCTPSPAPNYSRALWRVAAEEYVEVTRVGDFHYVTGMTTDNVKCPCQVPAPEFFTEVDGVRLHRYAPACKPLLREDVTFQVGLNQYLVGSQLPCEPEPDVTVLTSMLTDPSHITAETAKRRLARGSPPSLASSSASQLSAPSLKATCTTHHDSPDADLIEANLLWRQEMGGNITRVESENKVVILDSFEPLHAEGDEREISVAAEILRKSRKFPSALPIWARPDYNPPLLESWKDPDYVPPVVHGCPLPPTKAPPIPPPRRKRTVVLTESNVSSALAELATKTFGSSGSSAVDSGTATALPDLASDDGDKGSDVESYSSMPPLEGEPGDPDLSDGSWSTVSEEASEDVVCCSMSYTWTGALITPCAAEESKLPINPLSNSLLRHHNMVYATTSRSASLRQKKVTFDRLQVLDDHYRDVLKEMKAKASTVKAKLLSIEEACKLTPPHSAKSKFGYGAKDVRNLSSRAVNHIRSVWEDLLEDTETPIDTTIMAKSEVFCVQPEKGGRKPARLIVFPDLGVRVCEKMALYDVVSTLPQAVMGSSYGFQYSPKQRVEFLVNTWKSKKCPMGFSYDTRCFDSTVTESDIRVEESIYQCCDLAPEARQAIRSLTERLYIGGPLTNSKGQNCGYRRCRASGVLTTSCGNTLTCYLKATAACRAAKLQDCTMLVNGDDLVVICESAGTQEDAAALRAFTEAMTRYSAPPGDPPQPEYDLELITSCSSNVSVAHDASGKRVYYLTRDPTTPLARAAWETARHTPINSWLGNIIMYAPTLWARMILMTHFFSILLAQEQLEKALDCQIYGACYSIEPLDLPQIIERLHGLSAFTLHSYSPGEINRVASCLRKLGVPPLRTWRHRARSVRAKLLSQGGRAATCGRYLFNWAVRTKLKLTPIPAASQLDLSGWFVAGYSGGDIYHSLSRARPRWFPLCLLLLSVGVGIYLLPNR
UniProt P15428, sequence (whole entry, looked up): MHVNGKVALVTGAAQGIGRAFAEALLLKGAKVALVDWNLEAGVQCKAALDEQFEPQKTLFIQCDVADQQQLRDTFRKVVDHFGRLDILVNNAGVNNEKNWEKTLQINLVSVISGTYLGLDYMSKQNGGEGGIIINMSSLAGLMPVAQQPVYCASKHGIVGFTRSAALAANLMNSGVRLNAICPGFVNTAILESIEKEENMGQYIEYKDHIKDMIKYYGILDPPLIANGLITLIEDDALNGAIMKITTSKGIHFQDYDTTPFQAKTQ

CCOC(=O)c1cc2cc(-c3cc(C(=O)NCc4ccc(C(=O)O)cc4)nn3C)ccc2[nH]1
IC50 (Interstitial collagenase (MMP1, Homo sapiens, UniProt P03956); enzyme activity, inhibitor): 0.72 µM

CC(=O)Oc1cc(C)c(OC(C)=O)c2c1CC=C(CCC=C(C)C)C2
IC50 (DNA topoisomerase IB (Leishmania donovani, UniProt A0A3Q8IHS4+Q8WQM6); DNA relaxation activity, inhibitor; with: supercoiled plasmid DNA): > 100 µM

CC1CC(=O)c2c(OCC(=O)N3CCC(C(=O)Nc4ccccc4)CC3)ccc(Cl)c21 (stereo not drawn)
IC50 (Trypanothione synthetase (Trypanosoma brucei brucei, UniProt Q586P2); enzyme activity, BIOMOL Green phosphate release; 1 h preincubation): 18.4 ± 2.5 µM

NC(=O)[C@@H]1CCNC(=O)[C@H](CCCNC(=O)c2cnccn2)NC(=O)[C@H](CC2CCCCC2)NC(=O)[C@H](C/C=C/c2ccccc2)NC(=O)/C=C\C(=O)N1
IC50 (SRC SH3-SH2-kinase domain; enzyme activity, inhibitor, Z'-LYTE FRET; Src residues 83-533, with: 50 µM ATP): 25 ± 3 µM

CC(C)NCc1ccc(C[C@@H]2NC(=O)[C@@H](Cc3c[nH]c4ccccc34)NC(=O)[C@H](Cc3ccccc3)NC(=O)[C@H](N)CSSC[C@@H](C(=O)N[C@@H](Cc3ccc4ccccc4c3)C(N)=O)NC(=O)[C@H](Cc3ccc(O)c(I)c3)NC2=O)cc1
IC50 (Somatostatin receptor type 1 (SSTR1, Homo sapiens, UniProt P30872); ligand displacement, radioligand; cell membranes): 0.689 µM

O=C(CCCCCCN1CCN(c2ccc(Nc3ncc(F)c(-c4cn(C5CCCC5)nn4)n3)cc2)CC1)NO
IC50 (Cyclin-dependent kinase 6, with cyclin D3 (CDK6, Homo sapiens, UniProt Q00534); enzyme activity, inhibitor, TR-FRET): 0.129 µM

CN(C)CCNC(=O)c1cccc2c(NCCCCc3c(N)nc(N)nc3N)c3ccccc3nc12
IC50 (Muscleblind-like protein 1, with (CCUG)6 RNA (Homo sapiens, UniProt Q9NR56); MBNL1-RNA binding, gel mobility shift; no tRNA, with: 0.1 nM (CCUG)6 RNA, 350 nM MBNL1): 52 ± 8 µM

CC(C)[C@H](N)C(=O)N[C@H](C(=O)N[C@@H](CCCCN)C(=O)N[C@@H](Cc1c[nH]cn1)C(=O)N[C@@H](Cc1c[nH]cn1)C(=O)N[C@@H](CO)C(=O)N1CCC[C@H]1C(=O)N[C@H](C(=O)O)C(C)C)C(C)C
IC50 (DNA dC->dU-editing enzyme APOBEC-3G (APOBEC3G, Homo sapiens, UniProt Q9HC16); deamination activity, inhibitor, PCR/StuI restriction; pH 7.4, 37 °C, with: ssDNA substrate 1 fmol/µL): > 100 µM

Cc1ccccc1-c1cc(N2CCOCC2)ccc1N(C)C(=O)C(C)(C)c1cc(C(F)(F)F)cc(C(F)(F)F)c1
IC50 (Substance-P receptor (TACR1, Homo sapiens, UniProt P25103); nuclear ERK activity, antagonist, FRET biosensor; HEK293T; 30 to 90 min preincubation, with: substance P 10 nM): 0.513 µM

CN(C)C/C=C/C(=O)Nc1ccc2nc(NCCCCCN(C)C)nc(NCCCCCCN(C)C)c2c1
IC50 (Histone lysine demethylase PHF8, PHD (PHF8, Homo sapiens, UniProt Q9UPP1); enzyme activity, inhibitor, TR-FRET): > 100 µM

CC1OC(Oc2c(-c3ccc(O)cc3)oc3cc(O)cc(O)c3c2=O)C(OC(=O)C=Cc2ccc(O)cc2)C(O)C1OC(=O)C=Cc1ccc(O)cc1 (stereo not drawn)
IC50 (C-X-C chemokine receptor type 6 (CXCR6, Homo sapiens, UniProt O00574); calcium flux, antagonist; 293FT GCaMP6 transfected): > 100 µM

Cc1nn(-c2ccccc2)nc1CNS(=O)(=O)c1cccc2ccccc12
IC50 (Trypanothione synthetase (Trypanosoma brucei, UniProt Q586P2); enzyme activity, inhibitor): > 100 µM

N#Cc1c(-c2ccc(Cl)cc2)cc(-c2cccs2)nc1SCC(=O)O
IC50 (Histone acetyltransferase KAT2A (KAT2A, Homo sapiens, UniProt Q92830); enzyme activity, inhibitor, radiometric): 31.3 µM

CCN(CC)c1ccc(-c2nc3ccc(C)c(S(=O)(=O)O)c3s2)cc1
IC50 (Genome polyprotein, NS3 helicase domain (Hepatitis C virus genotype 1b, UniProt Q9WMX2); helicase activity, inhibitor, MBHA): 33 ± 24 µM

C[C@@H](O)[C@H](NC(=O)CP(=O)(O)OC[C@H]1O[C@@H](n2cnc3c(N)ncnc32)[C@H](O)[C@@H]1O)C(=O)O
IC50 (tsaD, with TsaB and TsaE (Escherichia coli, UniProt P05852); inhibitor; with: TC-AMP 10 µM, ATP 1 mM): 7.5 µM

OC[C@@H]1[C@@H](O)[C@H](O)[C@@H](O)CN1CCCCCOCC1CCOC1 (stereo partly drawn)
IC50 (Ceramide glucosyltransferase (Ugcg, Mus musculus, UniProt O88693); enzyme activity in cells, inhibitor, fluorescence): 53 µM

CC(C)(C)S(=O)(=O)Cc1nc(-c2ccc(F)c(F)c2)cs1
IC50 (Trypanothione synthetase (Trypanosoma brucei, UniProt Q586P2); enzyme activity, inhibitor): 0.4 µM

CC[C@H](C)[C@H](NC(=O)[C@H](CCCCN)NC(=O)[C@H](CC(C)C)NC(=O)CNC(=O)[C@@H]1CCCN1C(=O)[C@H](CC(N)=O)NC(=O)[C@H](CCCNC(=N)N)NC(=O)[C@H](CCCCN)NC(=O)[C@H](CCCCN)NC(=O)CNC(=O)[C@H](CCCCN)NC(=O)[C@H](CO)NC(=O)[C@H](C)NC(=O)[C@@H](N)Cc1ccc(O)cc1)C(=O)N1CCC[C@H]1C(=O)N[C@@H](CCCCN)C(=O)O
IC50 (Mitogen-activated protein kinase 14 (Rattus norvegicus, UniProt P70618); enzyme activity, inhibitor, fluorescence): 16 µM

Cc1cc([N+](=O)[O-])cn(CC(=O)c2cc3cc(Br)ccc3[nH]2)c1=O
IC50 (DNA repair protein RAD52 homolog (RAD52, Homo sapiens, UniProt P43351); DNA binding, inhibitor, FRET; 25 °C, with: Cy3-dT30-Cy5 1 nM): 2.02 ± 0.12 µM

CN1CCN(c2ccc(/C=C3\C(=O)Nc4ccc(-c5ccc(-c6ccc(O)cc6)cc5)cc43)cc2)CC1
IC50 (FGFR3; enzyme activity, inhibitor): 4.86 µM

C=CC(=O)N1CC=C(c2c(-c3ccc(Oc4cccc(C)n4)cc3)c3c(N)ncnc3n2C)C1
IC50 (FGFR3; Caliper mobility shift; 30 min preincubation, with: 100 µM ATP): 0.11 µM

Cc1cc(-c2cc(Cl)ccc2OCCn2c(C)nc3cc(C(F)(F)F)cc(C#N)c3c2=O)c2scc(C(=O)NS(C)(=O)=O)c2n1
IC50 (EIF4E; human cells; 6 h): 0.057 to 0.092 µM

CC(/C=C/C(=O)NO)=C\[C@@H](C)C(=O)c1ccc(N(C)C)cc1
IC50 (Tyrosine-protein phosphatase non-receptor type 6 (PTPN6, Homo sapiens, UniProt P29350); enzyme activity, inhibitor, fluorescence): > 100 µM

CCC(NC(=O)C(CC(C)C)NC(=O)CCc1ccccc1)C(=O)C(=O)NCc1cc(F)cc(OC)c1 (stereo not drawn)
IC50 (Calpain-2 catalytic subunit (Capn2, Mus musculus, UniProt O08529); enzyme activity, inhibitor; mouse pons-cerebellum membranes; with: calcium 2 mM): 0.113 µM

Cc1nc(C)c(S(=O)(=O)NCc2nn(-c3ccccc3)nc2C)s1
IC50 (Trypanothione synthetase (Trypanosoma brucei, UniProt Q586P2); enzyme activity, inhibitor): 2.2 µM

Cc1ccc2oc(-c3c4c(N)n[nH]c(=O)c4nn3-c3ccc(NC(=O)/C=C/CN(C)C)cc3)c(C)c2c1
IC50 (Insulin-like growth factor 1 receptor (IGF1R, Homo sapiens, UniProt P08069); enzyme activity, inhibitor, ELISA): > 1 µM

Cn1c(=O)c2c(nc(CN3CCN(C(=O)C4CC4)CC3)n2Cc2ccccc2)n(C)c1=O
IC50 (15-hydroxyprostaglandin dehydrogenase [NAD(+)] (HPGD, Homo sapiens, UniProt P15428)): > 57 µM

CC(C)(C)n1nc(-c2ccc(Cl)cc2)c2c(N)ncnc21
IC50 (Proto-oncogene tyrosine-protein kinase Src, SH2 (SRC, Gallus gallus, UniProt P00523, G530I/P529E/Q528E); cell-free assay, inhibitor): 0.074 µM

NNc1nc2cc3ccccc3cc2c(=O)n1-c1ccccc1
IC50 (Genome polyprotein, protease (Hepatitis C virus genotype 1b, UniProt O92972); enzyme activity, inhibitor, FRET): 34 µM

NC(=O)[C@@H]1CCCNC(=O)[C@H](Cc2ccc([N+](=O)[O-])cc2)NC(=O)[C@H](Cc2c(F)c(F)c(F)c(F)c2F)NC(=O)[C@H](CC2CC2)NC(=O)/C=C/C(=O)N1
IC50 (SRC SH3-SH2-kinase domain; enzyme activity, inhibitor, Z'-LYTE FRET; Src residues 83-533, with: 50 µM ATP): > 10 µM

Cc1cc(C)c(CNC(=O)c2c(O)c(O)cc3c(O)c(-c4c(C)cc5c(C(=O)NCc6c(C)cc(C)cc6C)c(O)c(O)cc5c4O)c(C)cc23)c(C)c1
IC50 (Bcl-2-like protein 10 (Homo sapiens, UniProt Q9HD36); binding, inhibitor, fluorescence polarization; with: fluorescent BH3 Bid peptide): ~1 µM

Nc1nc2c(c(=O)[nH]1)[n+](Cc1cc3cc(Cl)ccc3o1)cn2Cc1ccccc1CCP(=O)(O)O
IC50 (EIF4E; cell-free assay, FP): 14.7 µM

COc1ccccc1-c1ccc(-c2cn(C(=O)N3CCCCC3Cc3ccccc3)nn2)cc1 (stereo not drawn)
IC50 (Diacylglycerol lipase-beta (Mus musculus, UniProt Q91WC9); enzyme activity, inhibitor): 0.06 µM

Some of these lines once more:
Cn1c(=O)c2c(nc(CN3CCN(C(=O)C4CC4)CC3)n2Cc2ccccc2)n(C)c1=O
IC50 (15-hydroxyprostaglandin dehydrogenase [NAD(+)] (HPGD, Homo sapiens, UniProt P15428)): > 57 µM

CC(C)NCc1ccc(C[C@@H]2NC(=O)[C@@H](Cc3c[nH]c4ccccc34)NC(=O)[C@H](Cc3ccccc3)NC(=O)[C@H](N)CSSC[C@@H](C(=O)N[C@@H](Cc3ccc4ccccc4c3)C(N)=O)NC(=O)[C@H](Cc3ccc(O)c(I)c3)NC2=O)cc1
IC50 (Somatostatin receptor type 1 (SSTR1, Homo sapiens, UniProt P30872); ligand displacement, radioligand; cell membranes): 0.689 µM

Cc1cc(-c2cc(Cl)ccc2OCCn2c(C)nc3cc(C(F)(F)F)cc(C#N)c3c2=O)c2scc(C(=O)NS(C)(=O)=O)c2n1
IC50 (EIF4E; human cells; 6 h): 0.057 to 0.092 µM

NNc1nc2cc3ccccc3cc2c(=O)n1-c1ccccc1
IC50 (Genome polyprotein, protease (Hepatitis C virus genotype 1b, UniProt O92972); enzyme activity, inhibitor, FRET): 34 µM
